Assay results of several laboratories.
Each numbered part is a random draw from the data of one study; scales do not carry over between parts.

Series 1
Target: RNA binding protein fox-1 homolog 2, RRM domain, GST-SBP tag (RBFOX2, Homo sapiens, UniProt O43251-10, residues 100-194)
Method: RNA Bind-n-Seq
Form: RNA
Sample: in vitro
Tested at: 365 nM
Setting: natural RNA segment, single round, ends assumed
Baseline: no-protein control
Direction: higher = stronger binding
Strand	RBNS enrichment (R)
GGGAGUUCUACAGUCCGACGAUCGAUUUCCUAACAGAAAGAUAUUUUGAUCUAUUUUCCUAUGGAAUUGUUUCUAUUAUUAUCUUUUAAUUUCUUUUUUUAUUUAAUAGUAAUAGCUCCUUUCUCCUUCCUCUUGGAAUUCUCGGGUGCCAA	0.935
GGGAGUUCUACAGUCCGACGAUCUCAGCAGCAUGCACUGUUGAGCUUUUCUGACGCUGUGUCAGAAUGGCACUAGUUCAGUUUAUAUCCCUCUCAUAAUAUGGCAGUUCAUUAAAAUACAAAGCAGUAAAAUGUGGAAUUCUCGGGUGCCAA	1.67
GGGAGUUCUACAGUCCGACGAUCCUGGAAUAAUAAUGCCAUAUUGUAUUUUGCACACUGCUUUAUUUUCUAGAGGCUCUGGGAGCAAAUUACAUUCAUCACAUUACCUCUGCUCUCUCAAGAUUAAAGUCUUUUGGAAUUCUCGGGUGCCAA	0.362
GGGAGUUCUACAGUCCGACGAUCAACUUAUGUUUCGCAGCAAAAGUGGAAACCUGUCUGUAAAGCAAGUGUAACGAUGAUUUCCUGUAUCAUGGGGGCUCAAACCAGGACCUCUCUAGUUGCUGUUAGGAAUGUGGAAUUCUCGGGUGCCAA	0.568
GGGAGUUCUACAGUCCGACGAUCUGUUUUGGUAGGAAAUCUUUAAGAUUGGCGGACGGAACAGGUAUUUUAGUGAGACACUUCUGAGUACUUGCUUUUUCCUUUGACUUCUAACCAACUAAAAGAGAAGGAGGUGGAAUUCUCGGGUGCCAA	0.388
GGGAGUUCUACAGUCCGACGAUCGUUGAUUAAUAGCUGAAGCAAAGUAUCCAAAUUUGUGACAAGGGUUUGUGUGUAUCCCCUCCGUGAAAUCCAGCCAAUUAUCAGGGUAGAAGAUGGGUGCAUGAGAAUCUUGGAAUUCUCGGGUGCCAA	1.17
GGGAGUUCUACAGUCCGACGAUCAAAAAGGACUUAAUUUCUACUACUGCACUAUCUGUUGUGAGAUAAUUAAACAUGCUAUUUAAUUGUGUGCCUGGCUAUGAGGUUGUGCUAUUUCAUGCUACAUGUGUGACUGGAAUUCUCGGGUGCCAA	0.776
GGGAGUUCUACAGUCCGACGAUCUUUCUUGUACAUUUGUGUCUCCCUUCCCAACUAGACUGUAAGUGCCUUGCGGUCAGGGACUGAAUCUUGCCCGUUUAUGUAUGCUCCAUGUCUAGCCCAUCAUCCUGCUUUGGAAUUCUCGGGUGCCAA	2.57
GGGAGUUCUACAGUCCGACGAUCAUUUUAACUAGUGAACAUAAGGACAAUUUGCCUCAAUAGAAGACCAACAACCCCAUCAUGGAAUAUCACAGAAAUUCUUUUGGAUAACAAUUUGUUCCAACUUUAAUCCAUGGAAUUCUCGGGUGCCAA	0.405
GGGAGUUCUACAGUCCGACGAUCAUUCUUUAAAAGCCAAGGUGCCCAUAUGGAAAAAGGGCUUGACUUAAACCUGUGAUAAGAUGUCUGCAAUAGACUCAGCCUUCUGUGACUAACUCCUAACUAACCAGCUCUGGAAUUCUCGGGUGCCAA	0.441

Series 2
Target: TAR DNA-binding protein 43, full length, His tag (TARDBP, Homo sapiens, UniProt Q13148, residues 1-414)
Method: RNA Bind-n-Seq
Form: RNA
Sample: in vitro
Tested at: 20 nM
Setting: 6-mer, flanks averaged, single round
Added: 150 mM LiCl
Baseline: input library
Direction: higher = stronger binding
Strand	6-mer enrichment (R)
CUGCGG	0.955
UGUUUU	1.58
GGUAUG	1.5
UUUUUA	1.49
UUAGCG	0.973
GGAACG	0.993
GCCGUG	1.03
CUCCCG	0.999
UCCUCU	0.923
CCACUG	0.932
CAACGU	0.85
GUGCUU	1.14
AAAUGU	1.04
UAUCAA	0.85

Series 3
Target: Ras GTPase-activating protein-binding protein 1, RRM domain (G3BP1, Homo sapiens, UniProt Q13283)
UniProt Q13283, sequence (whole entry, looked up): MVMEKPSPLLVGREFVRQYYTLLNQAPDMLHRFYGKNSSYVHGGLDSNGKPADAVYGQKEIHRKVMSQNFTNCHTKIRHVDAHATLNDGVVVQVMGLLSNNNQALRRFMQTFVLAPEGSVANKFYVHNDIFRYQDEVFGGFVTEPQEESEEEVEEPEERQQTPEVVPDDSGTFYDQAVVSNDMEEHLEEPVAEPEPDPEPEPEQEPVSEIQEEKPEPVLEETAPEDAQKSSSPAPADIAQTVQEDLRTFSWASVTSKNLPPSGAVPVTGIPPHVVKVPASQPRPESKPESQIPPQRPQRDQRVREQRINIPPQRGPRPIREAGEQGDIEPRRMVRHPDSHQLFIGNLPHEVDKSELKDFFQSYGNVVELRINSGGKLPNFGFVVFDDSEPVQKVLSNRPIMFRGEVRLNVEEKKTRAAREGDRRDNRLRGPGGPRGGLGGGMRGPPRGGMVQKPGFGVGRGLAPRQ
Method: RNA Bind-n-Seq
Form: RNA
Sample: in vitro
Tested at: 1 µM
Setting: whole 134-nt RNA, ends assumed
Added: 150 mM KCl
Baseline: input library
Direction: higher = stronger binding
Strand	log2 enrichment
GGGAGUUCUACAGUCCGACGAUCAAGUCCUGUGCUACACAUCGUAUGUACCGAAUCGGGAAAAGGAAAAGGGAAAAGGGGAAAGUAUUAUGUUACGCCGUUCGGAUCUGCACUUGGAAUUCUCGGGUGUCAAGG	0.0276
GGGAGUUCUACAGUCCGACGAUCCUCAAGUCCUGUGCUACACAUCGUAUGUACCGAAUCGGGGUGGGGUGGGUGGGAAAGUAUUAUGUUACGCCGUUCGGAUCUGCACUUCCAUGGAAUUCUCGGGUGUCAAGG	0.00243
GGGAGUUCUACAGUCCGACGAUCCACAGACAACACGCACCCACACAGACACAGAGGGAAGGGGUUGGGAUGGGGACAGGUUGCACAGCAGGGCGGGGUAGGACCCCAGCCCCUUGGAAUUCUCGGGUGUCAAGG	-0.0345
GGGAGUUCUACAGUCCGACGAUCCUCAAGUCCUGUGCUACACAUCGUAUGUACCGAAUCGGUUGGGUUGGGGUUGGAAAGUAUUAUGUUACGCCGUUCGGAUCUGCACUUCCAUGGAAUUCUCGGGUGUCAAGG	-0.176
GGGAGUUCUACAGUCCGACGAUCAAGUCCUGUGCUACACAUCGUAUGUACCGAAUCGGUUUUUGGAAAGGUUUUUUUGGAAAGUAUUAUGUUACGCCGUUCGGAUCUGCACUUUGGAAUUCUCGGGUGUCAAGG	-0.34

Further values, each from its own experiment
Molecule	target	assay	test system	setting	how to read	measurement	result
PhoQ, residues 284 288 289 292 302 303 QWGLFV	PhoP, residues 12 14 15 18 19 NMSSL (Escherichia coli, UniProt P23836)	Sort-seq, refers to: YFP reporter	E. coli	PhoQ-PhoP variant library, added: 10 µM Mg2+	baseline: high Mg2+ state, higher = stronger signaling	fold induction	20.5

Excerpt of the above (series 1):
Strand	RBNS enrichment (R)
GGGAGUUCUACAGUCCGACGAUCAUUCUUUAAAAGCCAAGGUGCCCAUAUGGAAAAAGGGCUUGACUUAAACCUGUGAUAAGAUGUCUGCAAUAGACUCAGCCUUCUGUGACUAACUCCUAACUAACCAGCUCUGGAAUUCUCGGGUGCCAA	0.441
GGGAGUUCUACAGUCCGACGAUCAAAAAGGACUUAAUUUCUACUACUGCACUAUCUGUUGUGAGAUAAUUAAACAUGCUAUUUAAUUGUGUGCCUGGCUAUGAGGUUGUGCUAUUUCAUGCUACAUGUGUGACUGGAAUUCUCGGGUGCCAA	0.776
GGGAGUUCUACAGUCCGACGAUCUCAGCAGCAUGCACUGUUGAGCUUUUCUGACGCUGUGUCAGAAUGGCACUAGUUCAGUUUAUAUCCCUCUCAUAAUAUGGCAGUUCAUUAAAAUACAAAGCAGUAAAAUGUGGAAUUCUCGGGUGCCAA	1.67
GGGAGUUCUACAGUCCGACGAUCAUUUUAACUAGUGAACAUAAGGACAAUUUGCCUCAAUAGAAGACCAACAACCCCAUCAUGGAAUAUCACAGAAAUUCUUUUGGAUAACAAUUUGUUCCAACUUUAAUCCAUGGAAUUCUCGGGUGCCAA	0.405
